Results of several laboratories.
Each line is one published result; not all experiments were run side by side.
Technique: steady-state kinetics
B1: NUDT12 (Homo sapiens, UniProt Q9BQG2); chain MSSVKRSLKQEIVTQFHCSAAEGDIAKLTGILSHSPSLLNETSENGWTALMYAARNGHPEIVQFLLEKGCDRSIVNKSRQTALDIAVFWGYKHIANLLATAKGGKKPWFLTNEVEECENYFSKTLLDRKSEKRNNSDWLLAKESHPATVFILFSDLNPLVTLGGNKESFQQPEVRLCQLNYTDIKDYLAQPEKITLIFLGVELEIKDKLLNYAGEVPREEEDGLVAWFALGIDPIAAEEFKQRHENCYFLHPPMPALLQLKEKEAGVVAQARSVLAWHSRYKFCPTCGNATKIEEGGYKRLCLKEDCPSLNGVHNTSYPRVDPVVIMQVIHPDGTKCLLGRQKRFPPGMFTCLAGFIEPGETIEDAVRREVEEESGVKVGHVQYVACQPWPMPSSLMIGCLALAVSTEIKVDKNEIEDARWFTREQVLDVLTKGKQQAFFVPPSRAIAHQLIKHWIRINPNL
B2: RABH1B (Arabidopsis thaliana, UniProt O80501); chain MAPVSALAKYKLVFLGDQSVGKTSIITRFMYDKFDNTYQATIGIDFLSKTMYLEDRTVRLQLWDTAGQERFRSLIPSYIRDSSVAVIVYDVASRQSFLNTTKWIDEVRTERGSDVIVVLVGNKTDLVDKRQVSIEEAEAKARELNVMFIETSAKAGFNIKALFRKIAAALPGMETLSSTKQEDMVDVNLKSSNANASLAQQQSGGCSC
B3: enzyme (Myxococcus xanthus, UniProt Q1DB04); chain MSFINYSSREINCKIVYYGPGLCGKTTNLQYIYNKTAAETKGKLISLSTETDRTLFFDFLPLSLGEIRGFKTRFHLYTVPGQVFYDASRKLILKGVDGVVFVADSQIERMEANMESLENLRINLAEQGYDLNKIPYVIQYNKRDLPNAVTVEEMRKALNHRNIPEYQAVAPTGVGVFDTLKAVAKLVLTELKKGG
B4: enzyme (Aspergillus nidulans, UniProt Q5AS09); chain MTRPIVVLGAGVLGRRIAAVLIAGGHTVHIRDPSTQALSDAASFIDAHLHEFTAITPTPHPVPGTYKAFAEISSAVAGAWLVIEAVPEKLSLKIDTFAEVDRHAPADCVIASNSSSFKSSLMVEKVGEQRKERVLNVHFTMPPQIRTVELMTNGQTRPELFESLSKMLKGCGMIPVTARKESTGFIFNRLWAAIKREIMLILAEDVSTPEEIDLLWTNMFQLPTSSPPCQLMDKIGLDTVAFIEDNYIQERGLDGSMTVDWLRKSYIDQGRLGLKSEKGGLYGPS
B5: enzyme C429A (Methanosarcina mazei, UniProt Q8PVB1); chain MSEQRSVPLREHLLALKPCRHGGLIQETSETYGIPENEILDFSANFNPLGSPFDYPENGLNFEDIIKKSCGKLLEYPDNRYVEFREAAARFVGLGVTPQSIVPGNGSTEIVRLVVESVIEKGDKVLLPWPTFGEYEMQCRITGAEPVCPSQEEVNTLPDEVLEEAKILFICNPNNPTGKLRTREELKVLAERCREHKTLLYVDEAFIELSDPSQSVADLPAENNYVFVMRSLTKDFAIPGIRMGFGIAPPAMADILNTARLSWNLGAIANNTGIALLNIEGGIDSPYLKKAREMILKEGETLKAKIDRIRGFEAGEVNVNFILVDVSKFMLNSSELTARLAARGVLVRDCVSFHGLGKNYIRVAVRTEKENDRLIAAIGDVITEWGREQAKNELQHVIEKASEEGIGGRKTCEYYPCHFEGQNCTFCFAPFYPCENEKTGGKWIQSSRGGRVWSCVDCHLVHKKEIAQKILDCLMHEGDTDELVKVAWKEVMEPIL
B6: spt (Sphingomonas paucimobilis, UniProt Q93UV0); chain TEAAAQPHALPADAPDIAPERDLLSKFDGLIAERQKLLDSGVTDPFAIVMEQVKSPTEAVIRGKDTILLGTYNYMGMTFDPDVIAAGKEALEKFGSGTNGSRMLNGTFHDHMEVEQALRDFYGTTGAIVFSTGYMANLGIISTLAGKGEYVILDADSHASIYDGCQQGNAEIVRFRHNSVEDLDKRLGRLPKEPAKLVVLEGVYSMLGDIAPLKEMVAVAKKHGAMVLVDEAHSMGFFGPNGRGVYEAQGLEGQIDFVVGTFSKSVGTVGGFVVSNHPKFEAVRLACRPYIFTASLPPSVVATATTSIRKLMTAHEKRERLWSNARALHGGLKAMGFRLGTETCDSAIVAVMLEDQEQAAMMWQALLDGGLYVNMARPPATPAGTFLLRCSICAEHTPAQIQTVLGMFQAAGRAVGVIG
B7: enzyme (UniProt A0A063Y6V3); chain MNTRVAIIGAGPCGLAQLRAFQSAAAKGAAIPELVCFEKQSDWGGMWNYTWRTGVDEHGEPVHGSMYRYLWSNGPKECLEFADYTFDEHFGRPIGSYPPREVLWDYIKGRVEKAGVRDYIRFNTAVRQVSYDETSGLFSVTVQDHSNNRVYTETFDYVVNACGHFSTPNTPYFEGFERFGGRVLHAHDFRDALEFKDKDILVVGSSYSAEDIGSQCYKYGARSITSCYRSAPMGYQWPQNWEEKPLLQRVDSDTAWFADGSHKRIDAIILCTGYQHHFPFLPDSLRLITENRLWPLKLYKGIFWEDNPKFLYLGMQDQWYSFNMFDAQAWYARDVILGRISLPGKAEMQAENQAWREREEKLQTAQEMFEFQGSYIQHLIDATDYPSFDIQAVNETFLAWKHDKYEDIMGYRNKCYRSLMTGTLATPHHTPWLDALDDSLEAYLQETPRLKSAV
B8: acsA (Pseudomonas chlororaphis, UniProt Q5CD72); chain MRDYEHVVESFDYLQSATQDLHGELTALNACVECCDRHAHGEAVALYCEAQDGHAERYRFRDLQRQAARFGNFLREQGVKPGDRVAGLMPRTVELLIAILGTWRIGAVYQPLFTAFGPKAIEQRLNCSNARWIVTDPHNRPKLDDVTDCPSIVVTGGAPQNPADHHFWSALNRQADDCAPVLLDASAPFLLMCTSGTTGPAKPLEVPLSAILAFKGYMRDAIDLRADDRFWNLADPGWAYGLYYAVTGPLACGYATLFYDGPFTVESTRHIIAKYAINNLAGSPTAYRFLIAAGAEFADAVRGRLRAVSSAGEPLNPQVVRWFAEQLGVVIHDHYGQTEIGMVLCNHHGLRHPVREGSAGYAVPGYRIVVLDKAHRELPAGQPGVLAVDRERSPLCWFDGYLGMPTQAFAGRYYLSGDIVELNDDGSISFVGRNDDLITTSGYRVGPFDVESALIEHPAVVEAAVIGKPDPQRTELIKAFVVLNTPYLPSPELAEELRLHVRQRLAAHAYPREMEFVDHLPKTPSGKLQRFILRNQEIAKQQALG
B9: enzyme (Sulfolobus acidocaldarius, UniProt Q4JAC4); chain MFIISFEGIDGSGKTTISKIIYEKLLIEIGSNKKIILTSEPFSQEIIKLIEEIGWKDPISLALLFTADRAYHLNLLFKQNPEIIIMDRYIDSTIAYQSSLGIDENWIRNLNKYFPEPDLTILLDLKPETAIARIKNKVDKFNFDEKISTLSKVREKYLELAKRNNKIRIVNAEKSIDEIVEETWSIVYSFLNHF
Chain of UniProt P09874 (whole entry, looked up): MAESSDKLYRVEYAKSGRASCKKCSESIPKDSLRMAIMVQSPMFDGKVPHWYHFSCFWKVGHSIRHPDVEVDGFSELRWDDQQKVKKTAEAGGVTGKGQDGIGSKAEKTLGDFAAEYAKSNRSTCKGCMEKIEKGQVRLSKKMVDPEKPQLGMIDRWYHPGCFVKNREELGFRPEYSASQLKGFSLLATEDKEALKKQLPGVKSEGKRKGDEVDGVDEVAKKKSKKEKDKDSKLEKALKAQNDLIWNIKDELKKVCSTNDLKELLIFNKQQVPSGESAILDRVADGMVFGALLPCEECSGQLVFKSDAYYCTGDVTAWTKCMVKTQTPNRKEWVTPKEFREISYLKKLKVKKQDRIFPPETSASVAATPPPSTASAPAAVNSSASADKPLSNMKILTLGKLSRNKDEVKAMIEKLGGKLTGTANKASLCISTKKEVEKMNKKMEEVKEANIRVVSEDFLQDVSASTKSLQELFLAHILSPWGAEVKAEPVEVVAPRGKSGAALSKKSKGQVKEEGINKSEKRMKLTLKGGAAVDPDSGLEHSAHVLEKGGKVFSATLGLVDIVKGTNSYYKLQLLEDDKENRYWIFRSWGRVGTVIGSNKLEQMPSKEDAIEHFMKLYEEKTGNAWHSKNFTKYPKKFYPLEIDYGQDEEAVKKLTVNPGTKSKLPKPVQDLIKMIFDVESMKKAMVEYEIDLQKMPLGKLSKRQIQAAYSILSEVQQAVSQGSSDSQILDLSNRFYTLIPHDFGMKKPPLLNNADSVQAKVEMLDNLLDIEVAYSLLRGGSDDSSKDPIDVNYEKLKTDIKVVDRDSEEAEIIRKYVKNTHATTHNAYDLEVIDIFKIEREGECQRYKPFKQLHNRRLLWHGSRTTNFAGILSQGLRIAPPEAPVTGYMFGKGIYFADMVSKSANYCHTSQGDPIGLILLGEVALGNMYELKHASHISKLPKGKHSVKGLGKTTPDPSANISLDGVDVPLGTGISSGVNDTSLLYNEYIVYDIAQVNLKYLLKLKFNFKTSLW
Chain of UniProt P42328 (whole entry, looked up): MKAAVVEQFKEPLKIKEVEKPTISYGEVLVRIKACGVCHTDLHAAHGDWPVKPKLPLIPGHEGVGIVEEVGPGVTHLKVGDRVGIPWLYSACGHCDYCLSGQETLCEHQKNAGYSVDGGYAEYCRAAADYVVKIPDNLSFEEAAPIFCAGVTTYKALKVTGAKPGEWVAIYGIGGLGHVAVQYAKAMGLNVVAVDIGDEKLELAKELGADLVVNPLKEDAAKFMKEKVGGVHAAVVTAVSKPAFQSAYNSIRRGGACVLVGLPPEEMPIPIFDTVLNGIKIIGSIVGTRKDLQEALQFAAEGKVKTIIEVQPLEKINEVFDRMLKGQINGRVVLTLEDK

Molecule | substrate | pH | temperature | setting | together with | Km
B1 (NUDT12) | Nc1ncnc2c1ncn2[C@@H]1O[C@H](COP(=O)(O)OP(=O)(O)OP(=O)(O)OP(=O)(O)OP(=O)(O)OC[C@H]2O[C@@H](n3cnc4c(N)ncnc43)[C@H](O)[C@@H]2O)[C@@H](O)[C@H]1O | – | – | – | Mg2+ | 390 µM
B2 (RABH1B) | Nc1nc2c(ncn2[C@@H]2O[C@H](COP(=O)(O)OP(=O)(O)OP(=O)(O)O)[C@@H](O)[C@H]2O)c(=O)[nH]1 | pH 7.5 | 30 °C | – | – | 12900 µM
B3 (enzyme) | Nc1nc2c(ncn2[C@@H]2O[C@H](COP(=O)(O)OP(=O)(O)OP(=O)(O)O)[C@@H](O)[C@H]2O)c(=O)[nH]1 | pH 7.4 | – | apparent | MglA 2 µM, MglB 4 µM | 1.05 µM
B4 (enzyme) | CCCCCCC[C@@H](O)CC(=O)O | – | – | – | NAD+ | 60 µM
enzyme (Paenibacillus xylanivorans, UniProt A0A0N0UI50) | O=[N+]([O-])c1ccc(O[C@@H]2O[C@H](CO)[C@@H](O)[C@H](O)[C@H]2O)cc1 | pH 6.5 | 30 °C | – | – | 4620 µM
B5 (enzyme C429A) | Nc1ncnc2c1ncn2[C@@H]1O[C@H](COP(=O)(O)OP(=O)(O)OP(=O)(O)O)[C@@H](O)[C@H]1O | pH 8.5 | 25 °C | apparent, anoxic | L-Thr 10 mM | 118 µM
B6 (spt) | CCCCCCCCCCCC(=O)SCCNC(=O)CCNC(=O)[C@H](O)C(C)(C)COP(=O)(O)OP(=O)(O)OC[C@H]1O[C@@H](n2cnc3c(N)ncnc32)[C@H](O)[C@@H]1OP(=O)(O)O | – | – | – | PLP | 250 µM
B7 (enzyme) | NC(=O)C1=CN([C@@H]2O[C@H](COP(=O)(O)OP(=O)(O)OC[C@H]3O[C@@H](n4cnc5c(N)ncnc54)[C@H](O)[C@@H]3O)[C@@H](O)[C@H]2O)C=CC1 | pH 7 | 30 °C | cofactor varied | – | 30.4 µM
enzyme (Klebsiella pneumoniae, UniProt A6THV5) | CSCC[C@@H](NC(C)=O)C(=O)O | pH 8 | 35 °C | – | – | 32100 µM
PARP1 (Homo sapiens, UniProt P09874) | NC(=O)c1ccc[n+]([C@@H]2O[C@H](COP(=O)([O-])OP(=O)(O)OC[C@H]3O[C@@H](n4cnc5c(N)ncnc54)[C@H](O)[C@@H]3O)[C@@H](O)[C@H]2O)c1 | – | – | – | – | 8.62 µM
B8 (acsA) | C#CCCC(=O)O | pH 7 | – | – | – | 1200 µM
enzyme (Bacteroides ovatus, UniProt A0ABU3IP51) | O=[N+]([O-])c1ccc(O[C@H]2O[C@H](CO)[C@@H](O)[C@H](O)[C@H]2O)cc1 | pH 6.6 | – | – | – | 88 µM
enzyme (UniProt A0A1H9C520) | OC[C@@H](O)[C@@H](O)[C@H](O)[C@@H](O)CO | pH 8 | 37 °C | – | – | 7510 µM
B9 (enzyme) | Cc1cn([C@H]2C[C@H](O)[C@@H](COP(=O)(O)O)O2)c(=O)[nH]c1=O | pH 7.4 | 55 °C | – | ATP 2 mM | 13 µM
enzyme N248Y/Q325R/R246H/R328K (Arabidopsis thaliana, UniProt O24495) | C[C@@H](O)C(=O)SC[C@H](NC(=O)CC[C@H](N)C(=O)O)C(=O)NCC(=O)O | pH 7.2 | 25 °C | – | – | 249 µM
enzyme (Geobacillus stearothermophilus, UniProt P42328) | NC(=O)c1ccc[n+]([C@@H]2O[C@H](COP(=O)(O)OP(=O)(O)OC[C@H]3O[C@@H](n4cnc5c(N)ncnc54)[C@H](O)[C@@H]3O)[C@@H](O)[C@H]2O)c1 | pH 8 | – | apparent, cofactor varied | – | 50 µM
